Measured values of several laboratories.
Each line is one published result; not all experiments were run side by side. ± marks the error that the study gave.
Seed linoleate 13S-lipoxygenase-1: Seed linoleate 13S-lipoxygenase-1 (Glycine max, UniProt P08170)
UniProt P08170, sequence (whole entry, looked up): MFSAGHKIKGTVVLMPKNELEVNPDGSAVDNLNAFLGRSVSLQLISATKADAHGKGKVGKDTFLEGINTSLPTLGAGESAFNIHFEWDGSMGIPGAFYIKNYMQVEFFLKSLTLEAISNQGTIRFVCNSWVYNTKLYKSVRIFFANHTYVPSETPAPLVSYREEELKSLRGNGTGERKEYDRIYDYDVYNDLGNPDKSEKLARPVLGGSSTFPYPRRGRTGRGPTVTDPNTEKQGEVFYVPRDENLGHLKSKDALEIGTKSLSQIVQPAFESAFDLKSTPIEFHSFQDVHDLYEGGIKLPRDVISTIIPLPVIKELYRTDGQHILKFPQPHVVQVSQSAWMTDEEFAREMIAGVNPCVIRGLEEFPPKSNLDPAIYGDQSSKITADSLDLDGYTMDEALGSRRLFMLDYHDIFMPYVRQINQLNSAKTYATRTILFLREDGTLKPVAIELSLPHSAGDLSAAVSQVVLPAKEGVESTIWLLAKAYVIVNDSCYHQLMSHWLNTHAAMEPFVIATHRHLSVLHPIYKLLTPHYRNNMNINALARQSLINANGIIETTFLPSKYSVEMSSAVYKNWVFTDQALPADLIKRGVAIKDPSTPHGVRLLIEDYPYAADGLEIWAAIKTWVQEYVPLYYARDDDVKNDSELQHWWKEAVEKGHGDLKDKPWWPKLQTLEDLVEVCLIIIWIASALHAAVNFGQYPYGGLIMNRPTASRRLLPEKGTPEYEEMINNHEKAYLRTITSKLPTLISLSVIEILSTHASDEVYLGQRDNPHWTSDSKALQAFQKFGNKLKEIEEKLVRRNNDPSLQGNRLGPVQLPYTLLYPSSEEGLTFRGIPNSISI
TDP1: Tyrosyl-DNA phosphodiesterase 1 (TDP1, Homo sapiens, UniProt Q9NUW8)
UniProt Q9NUW8, sequence (whole entry, looked up): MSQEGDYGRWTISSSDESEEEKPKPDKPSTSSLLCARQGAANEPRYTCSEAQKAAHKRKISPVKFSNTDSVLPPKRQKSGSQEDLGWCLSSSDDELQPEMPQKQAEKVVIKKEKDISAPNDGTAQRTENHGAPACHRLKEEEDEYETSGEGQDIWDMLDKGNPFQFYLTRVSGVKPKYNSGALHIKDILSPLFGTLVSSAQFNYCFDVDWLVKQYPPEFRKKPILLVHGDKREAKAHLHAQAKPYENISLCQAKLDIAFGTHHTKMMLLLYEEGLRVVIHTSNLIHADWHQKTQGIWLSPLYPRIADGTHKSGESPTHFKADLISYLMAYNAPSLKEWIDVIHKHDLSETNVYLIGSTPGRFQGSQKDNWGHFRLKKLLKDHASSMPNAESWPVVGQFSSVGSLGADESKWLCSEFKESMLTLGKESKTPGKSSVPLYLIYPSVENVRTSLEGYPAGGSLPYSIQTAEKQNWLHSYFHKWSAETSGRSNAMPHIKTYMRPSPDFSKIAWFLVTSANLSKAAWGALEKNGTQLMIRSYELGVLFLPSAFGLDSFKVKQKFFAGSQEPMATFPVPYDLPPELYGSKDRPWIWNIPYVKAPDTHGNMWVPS
MAPK14: Mitogen-activated protein kinase 14 (MAPK14, Homo sapiens, UniProt Q16539)
UniProt Q16539, sequence (whole entry, looked up): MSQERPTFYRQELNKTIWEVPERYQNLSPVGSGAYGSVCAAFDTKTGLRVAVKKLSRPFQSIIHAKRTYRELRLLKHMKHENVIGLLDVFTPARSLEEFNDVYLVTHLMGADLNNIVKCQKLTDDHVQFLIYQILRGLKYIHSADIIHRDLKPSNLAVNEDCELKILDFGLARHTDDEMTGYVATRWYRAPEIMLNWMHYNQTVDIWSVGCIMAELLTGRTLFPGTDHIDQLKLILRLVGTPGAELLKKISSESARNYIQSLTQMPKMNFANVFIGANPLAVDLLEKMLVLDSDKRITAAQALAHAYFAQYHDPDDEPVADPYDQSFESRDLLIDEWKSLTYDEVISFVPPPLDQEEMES
UniProt P68400, sequence (whole entry, looked up): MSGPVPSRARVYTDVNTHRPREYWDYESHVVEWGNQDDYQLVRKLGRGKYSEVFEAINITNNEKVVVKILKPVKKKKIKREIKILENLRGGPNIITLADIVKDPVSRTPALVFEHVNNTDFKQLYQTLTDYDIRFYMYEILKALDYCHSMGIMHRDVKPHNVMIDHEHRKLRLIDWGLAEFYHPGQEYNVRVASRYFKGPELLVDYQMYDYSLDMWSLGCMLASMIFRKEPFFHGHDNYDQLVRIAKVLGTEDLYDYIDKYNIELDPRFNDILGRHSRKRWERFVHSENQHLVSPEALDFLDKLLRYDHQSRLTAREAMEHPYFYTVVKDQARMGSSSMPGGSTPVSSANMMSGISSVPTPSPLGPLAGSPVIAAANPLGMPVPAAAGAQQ
UniProt Q16881, sequence (whole entry, looked up): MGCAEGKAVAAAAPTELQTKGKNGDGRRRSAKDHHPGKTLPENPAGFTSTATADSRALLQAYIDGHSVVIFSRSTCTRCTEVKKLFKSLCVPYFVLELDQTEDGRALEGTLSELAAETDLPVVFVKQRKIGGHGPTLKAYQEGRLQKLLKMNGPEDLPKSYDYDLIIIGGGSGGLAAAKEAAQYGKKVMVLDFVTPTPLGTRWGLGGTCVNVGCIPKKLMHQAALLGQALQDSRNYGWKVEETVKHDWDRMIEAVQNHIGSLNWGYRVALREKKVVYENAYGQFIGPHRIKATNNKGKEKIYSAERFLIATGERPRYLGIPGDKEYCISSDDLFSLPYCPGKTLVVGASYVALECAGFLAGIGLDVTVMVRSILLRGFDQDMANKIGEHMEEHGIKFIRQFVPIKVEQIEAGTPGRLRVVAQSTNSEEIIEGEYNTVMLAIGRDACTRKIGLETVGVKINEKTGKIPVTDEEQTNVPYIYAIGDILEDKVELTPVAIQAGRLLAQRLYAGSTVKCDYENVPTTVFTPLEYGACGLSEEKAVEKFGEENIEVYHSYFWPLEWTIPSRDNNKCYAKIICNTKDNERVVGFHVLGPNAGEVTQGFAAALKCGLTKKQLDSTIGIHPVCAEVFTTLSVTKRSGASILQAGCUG
UniProt Q9H2H9, sequence (whole entry, looked up): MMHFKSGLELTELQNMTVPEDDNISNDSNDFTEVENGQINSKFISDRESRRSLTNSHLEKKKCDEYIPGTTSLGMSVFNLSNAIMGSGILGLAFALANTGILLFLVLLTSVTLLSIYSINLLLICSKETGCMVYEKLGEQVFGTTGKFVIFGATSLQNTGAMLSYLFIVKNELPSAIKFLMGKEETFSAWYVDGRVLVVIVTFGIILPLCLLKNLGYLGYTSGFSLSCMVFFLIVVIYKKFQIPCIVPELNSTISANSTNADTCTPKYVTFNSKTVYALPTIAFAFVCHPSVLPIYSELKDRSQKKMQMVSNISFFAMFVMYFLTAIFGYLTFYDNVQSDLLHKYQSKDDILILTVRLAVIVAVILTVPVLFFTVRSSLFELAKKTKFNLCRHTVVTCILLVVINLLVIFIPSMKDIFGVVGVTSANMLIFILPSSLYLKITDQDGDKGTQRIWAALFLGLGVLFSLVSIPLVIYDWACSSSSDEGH
UniProt Q5XXA6, sequence (whole entry, looked up): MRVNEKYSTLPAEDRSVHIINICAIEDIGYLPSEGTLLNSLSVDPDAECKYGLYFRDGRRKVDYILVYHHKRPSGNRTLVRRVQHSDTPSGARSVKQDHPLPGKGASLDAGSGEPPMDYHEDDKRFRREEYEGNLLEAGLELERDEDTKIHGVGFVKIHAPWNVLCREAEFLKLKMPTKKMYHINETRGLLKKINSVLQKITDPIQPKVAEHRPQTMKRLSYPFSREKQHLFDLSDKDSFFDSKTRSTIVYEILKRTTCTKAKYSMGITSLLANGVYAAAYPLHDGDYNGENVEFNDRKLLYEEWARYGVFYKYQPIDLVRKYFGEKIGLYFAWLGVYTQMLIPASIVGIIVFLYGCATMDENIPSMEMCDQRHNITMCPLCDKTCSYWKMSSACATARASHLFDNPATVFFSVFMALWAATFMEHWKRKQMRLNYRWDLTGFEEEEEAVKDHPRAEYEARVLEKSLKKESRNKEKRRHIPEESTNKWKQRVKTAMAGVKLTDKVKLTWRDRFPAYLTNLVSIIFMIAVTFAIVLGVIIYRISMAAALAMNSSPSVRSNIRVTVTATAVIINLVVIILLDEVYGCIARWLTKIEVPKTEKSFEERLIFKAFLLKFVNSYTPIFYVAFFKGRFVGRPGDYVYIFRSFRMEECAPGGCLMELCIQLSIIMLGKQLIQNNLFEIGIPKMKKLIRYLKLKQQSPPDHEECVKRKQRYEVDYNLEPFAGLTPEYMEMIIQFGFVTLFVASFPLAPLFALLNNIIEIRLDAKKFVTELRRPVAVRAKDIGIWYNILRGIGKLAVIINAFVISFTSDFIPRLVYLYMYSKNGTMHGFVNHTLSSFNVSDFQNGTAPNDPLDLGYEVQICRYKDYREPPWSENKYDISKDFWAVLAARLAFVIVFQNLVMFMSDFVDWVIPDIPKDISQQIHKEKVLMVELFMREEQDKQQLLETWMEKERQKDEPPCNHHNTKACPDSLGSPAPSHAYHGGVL
UniProt Q920B6, sequence (whole entry, looked up): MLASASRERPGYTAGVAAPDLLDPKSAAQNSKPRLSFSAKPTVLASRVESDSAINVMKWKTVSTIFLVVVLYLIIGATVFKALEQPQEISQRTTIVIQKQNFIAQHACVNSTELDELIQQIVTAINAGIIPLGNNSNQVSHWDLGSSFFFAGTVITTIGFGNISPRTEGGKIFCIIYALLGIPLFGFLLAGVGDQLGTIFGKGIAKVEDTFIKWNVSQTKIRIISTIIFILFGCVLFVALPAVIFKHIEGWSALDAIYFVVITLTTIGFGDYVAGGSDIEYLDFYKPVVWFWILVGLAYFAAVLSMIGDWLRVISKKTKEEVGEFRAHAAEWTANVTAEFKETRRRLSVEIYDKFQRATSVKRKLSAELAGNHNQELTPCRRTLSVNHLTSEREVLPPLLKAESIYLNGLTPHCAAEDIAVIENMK

SMILES = O=C1c2ccccc2C(=O)c2c1ccc1c2C(C(=O)Nc2ccccc2Cl)C(=O)C1c1ccccc1 (stereo not drawn); tested on = mushroom tyrosinase; test = enzyme activity, inhibitor, spectrophotometry; conditions = 50 µg/mL, together with: L-DOPA substrate; quantity = inhibition; value = 55.21 ± 0.26%
SMILES = Cc1cc(O)c2c(c1)C(=O)c1cc3oc(=O)cc(-c4ccc(O)cc4)c3c(O)c1C2=O; tested on = mushroom tyrosinase; test = enzyme activity; conditions = 100 µg/mL, together with: L-DOPA; quantity = inhibition; value = 31.33 ± 0.17%
SMILES = [64Cu+2].c1ccc(CNCc2ccc(CN3CCCN4CCNCCCN(CC4)CC3)cc2)nc1; tested on = CXCR4 (Homo sapiens, UniProt P61073); system = NOD/SCID mouse, U87-stb-CXCR4 tumour; conditions = dose not given, 90 to 240 min; scale = reference: maximum uptake; quantity = retained radioactivity; value = ~100%
SMILES = COc1cc(C(=O)NC2CCC(N3CCN(CC4CCC5(CCCC5)C4)CC3)CC2)c(F)cc1Nc1ncc2c(n1)N(C1CCCC1(F)F)CC(F)(F)C(=O)N2C (stereo not drawn); tested on = EPHA1 (Homo sapiens, UniProt P21709); test = cell-free assay, TR-FRET; conditions = 10 µM; quantity = inhibition; value = 0.96%
SMILES = Cc1c2c(cc3oc(=O)cc(-c4ccc(O)cc4)c13)C(=O)c1cccc(O)c1C2=O; tested on = mushroom tyrosinase; test = enzyme activity; conditions = 100 µg/mL, together with: L-DOPA; quantity = inhibition; value = 44.6 ± 0.63%
SMILES = CCC(=O)N(C)c1ccc(Cl)c(Cl)c1; tested on = CCKAR (Homo sapiens, UniProt P32238); test = ligand displacement, radioligand; conditions = 10 µM; quantity = inhibition; value = 10.3%
SMILES = Cc1cc(/C=C/c2ccc(O)c(O)c2)[nH]n1; tested on = TXNRD1 (Homo sapiens, UniProt Q16881); test = enzyme activity; system = MCF7; conditions = 25 µM, 48 h; quantity = inhibition; value = 27%
SMILES = Cc1cc(O)cc2c1C(=O)c1c(cc3oc(=O)cc(-c4ccccc4)c3c1O)C2=O; tested on = mushroom tyrosinase; test = enzyme activity; conditions = 100 µg/mL, together with: L-DOPA; quantity = inhibition; value = 48.19 ± 0.36%
SMILES = N=C(N)NCCC[C@@H]1NC(=O)[C@H](CCCCNC(=O)CNC(=O)CNC(=O)CNC(=O)CC[C@H](NC(=O)CNC(=O)CNC(=O)CNC(=O)CC[C@H](NC(=O)CN2CCN(CC(=O)O)CCN(CC(=O)O)CCN(CC(=O)O)CC2)C(=O)NCC(=O)NCC(=O)NCC(=O)N[C@@H](CCC(=O)NCC(=O)NCC(=O)NCC(=O)NCCCC[C@@H]2NC(=O)[C@@H](Cc3ccccc3)NC(=O)[C@H](CC(=O)O)NC(=O)CNC(=O)[C@H](CCCNC(=N)N)NC2=O)C(=O)NCC(=O)NCC(=O)NCC(=O)NCCCC[C@@H]2NC(=O)[C@@H](Cc3ccccc3)NC(=O)[C@H](CC(=O)O)NC(=O)CNC(=O)[C@H](CCCNC(=N)N)NC2=O)C(=O)NCC(=O)NCC(=O)NCC(=O)NCCCC[C@@H]2NC(=O)[C@@H](Cc3ccccc3)NC(=O)[C@H](CC(=O)O)NC(=O)CNC(=O)[C@H](CCCNC(=N)N)NC2=O)NC(=O)[C@@H](Cc2ccccc2)NC(=O)[C@H](CC(=O)O)NC(=O)CNC1=O [indium-111 labelled]; system = female athymic nu/nu mice, liver; conditions = intravenous, 24 h; quantity = tissue uptake; value = 2.46 ± 0.36 %ID/g
SMILES = CCN(CC)C(=O)C(C)Sc1nnc(C2CCN(C(=O)Nc3ccccc3)CC2)n1CC (stereo not drawn); tested on = Seed linoleate 13S-lipoxygenase-1; test = enzyme activity, inhibitor; conditions = 250 µM; quantity = inhibition; value = 89.5%
SMILES = O=C1CCCc2c1c1c(n2Cc2ccccc2)-c2ccccc2C1=O; tested on = Casein kinase II subunit alpha, with CK2 beta subunit (CSNK2A1, Homo sapiens, UniProt P68400); conditions = 10 µM; quantity = inhibition; value = 59%
SMILES = O=C1c2ccccc2C(=O)c2c1ccc1c2C(C(=O)Nc2ccc(Br)cc2)C(=O)C1c1ccccc1 (stereo not drawn); tested on = mushroom tyrosinase; test = enzyme activity, inhibitor, spectrophotometry; conditions = 50 µg/mL, together with: L-DOPA substrate; quantity = inhibition; value = 61.9 ± 1.32%
SMILES = N#Cc1ccc(-c2ccc(C=NOCc3ccc(-c4nc5cc(-c6ccccc6)ccn5c4Nc4ccc(C(=O)O)cc4)cc3)cc2)nc1; tested on = TDP1; test = enzyme activity, inhibitor; conditions = 100 µM; quantity = inhibition; value = 99%
SMILES = COc1cc(OC)c2c(c1)C(=O)c1cc3oc(=O)cc(-c4ccc(Cl)cc4)c3c(O)c1C2=O; tested on = mushroom tyrosinase; test = enzyme activity; conditions = 100 µg/mL, together with: L-DOPA; quantity = inhibition; value = 51.8 ± 0.55%
SMILES = CCn1c(SC(C)C(=O)Nc2ccccc2)nnc1C1CCN(C(=O)Nc2ccccc2)CC1 (stereo not drawn); tested on = Seed linoleate 13S-lipoxygenase-1; test = enzyme activity, inhibitor; conditions = 250 µM; quantity = inhibition; value = 84.7%
SMILES = Nc1n[nH]c(Nc2ccc(Cl)cc2)n1; tested on = MAPK14; test = primary fragment screen; conditions = 1 mM, together with: ATP 10 µM; quantity = inhibition; value = 7.9%
SMILES = Cc1cc(O)cc2c1C(=O)c1c(cc3oc(=O)cc(-c4ccc(O)cc4)c3c1O)C2=O; tested on = mushroom tyrosinase; test = enzyme activity; conditions = 25 µg/mL, together with: L-DOPA; quantity = inhibition; value = 41 ± 0.45%
SMILES = Cc1cncc(Oc2ccc(C=NOCc3ccc(-c4nc5cc(-c6ccccc6)ccn5c4Nc4ccc(C(=O)O)cc4)cc3)cc2)n1; tested on = TDP1; test = enzyme activity, inhibitor; conditions = 100 µM; quantity = inhibition; value = 111%
SMILES = CC(=O)Nc1cc(COc2c(Cl)cc(CC(N)C(=O)O)cc2Cl)c2oc(-c3ccccc3)nc2c1 (stereo not drawn); tested on = SLC38A1 (Homo sapiens, UniProt Q9H2H9); test = L-alanine uptake; system = Xenopus oocytes; conditions = 1 and 10 µM, 30 min, together with: L-[14C]alanine 50 µM; quantity = inhibition; value = no inhibition
SMILES = Cc1c2c(cc3oc(=O)cc(-c4ccccc4)c13)C(=O)c1cccc(O)c1C2=O; tested on = mushroom tyrosinase; test = enzyme activity; conditions = 50 µg/mL, together with: L-DOPA; quantity = inhibition; value = 61.45 ± 0.14%
SMILES = O=C(c1ccco1)N1CCN(Cc2ccc(Br)cc2)CC1; tested on = MAPK14; test = primary fragment screen; conditions = 1 mM, together with: ATP 10 µM; quantity = inhibition; value = 76.1%
SMILES = O=C1C[C@@H](c2ccc(O)c(O)c2)c2c(cc(O)c3c2O[C@H](c2ccc(O)c(O)c2)[C@H](O)C3)O1; tested on = DPP4 (Sus scrofa, UniProt P22411); test = enzyme activity, inhibitor, absorbance; conditions = 50 µg/mL; quantity = inhibition; value = 37.8%
SMILES = O=c1cc(-c2ccc(O)c(O)c2)oc2cc(O[C@@H]3O[C@H](CO)[C@@H](O)[C@H](O)[C@H]3O)cc(O)c12; tested on = Anoctamin-1 (ANO1, Homo sapiens, UniProt Q5XXA6); test = chloride current, inhibitor, whole-cell patch clamp; system = HEK293T expressing ANO1; conditions = 100 µM; quantity = inhibition; value = 18.5 ± 5.93%
SMILES = CCCCCC[N+](CCCCCC)(CCCCCC)CCCCCC; tested on = Kcnk2 (Rattus norvegicus, UniProt Q920B6); test = pressure-evoked current, blocker, inside-out patch clamp; system = Xenopus oocytes; conditions = 1 µM, together with: pressure 0 to -15 mmHg; quantity = inhibition; value = 67 ± 4.6%
SMILES = OC[C@H]1[C@@H](O)[C@@H](O)CN1Cc1ccc(Br)cc1; tested on = Alpha-mannosidase (Canavalia ensiformis, UniProt C0HJB3); test = enzyme activity, inhibitor, absorbance; conditions = 2 mM; quantity = inhibition; value = 8%
SMILES = O=C(c1ccco1)N1CCN(Cc2ccc3c(c2)OCO3)CC1; tested on = MAPK14; test = primary fragment screen; conditions = 1 mM, together with: ATP 10 µM; quantity = inhibition; value = 69.4%
SMILES = O=C(CC1(O)C(=O)Nc2cc(Cl)cc(Cl)c21)c1ccc2c(c1)OCO2 (stereo not drawn); tested on = Uncharacterized protein (Trypanosoma brucei brucei, UniProt Q386Q8); test = enzyme activity, inhibitor, coupled colorimetric; system = Trypanosoma brucei; conditions = 100 µM; quantity = inhibition; value = 25%
SMILES = NCCCC[C@H](NC(=O)[C@@H]1CCCN1C(=O)[C@@H]1CSSC[C@H](N)C(=O)N[C@@H](Cc2ccc(O)cc2)C(=O)N[C@@H](Cc2ccccc2)C(=O)N[C@@H](CCC(N)=O)C(=O)N[C@@H](CC(N)=O)C(=O)N1)C(=O)NCC(N)=O; tested on = AVPR1A (Homo sapiens, UniProt P37288); test = ligand displacement, radioligand; conditions = 10 µM; quantity = inhibition; value = > 50%
SMILES = O=C1c2ccccc2C(=O)c2c1ccc1c2C(C(=O)Nc2ccccc2)C(=O)C1c1ccccc1 (stereo not drawn); tested on = mushroom tyrosinase; test = enzyme activity, inhibitor, spectrophotometry; conditions = 100 µg/mL, together with: L-DOPA substrate; quantity = inhibition; value = 66.2 ± 0.81%
SMILES = C[C@@H](N)C1CCN(S(=O)(=O)c2cccc3cnccc23)CC1; tested on = RIOK1 (Homo sapiens, UniProt Q9BRS2); test = cell-free assay, competition with immobilised ligand; conditions = 10 µM; quantity = inhibition; value = > 95%
SMILES = COc1c2c(cc3oc(=O)cc(-c4ccccc4)c13)C(=O)c1cc(C)cc(O)c1C2=O; tested on = mushroom tyrosinase; test = enzyme activity; conditions = 25 µg/mL, together with: L-DOPA; quantity = inhibition; value = 44.58 ± 0.23%
SMILES = COc1cccc(OC)c1C(=O)N1CCN(Cc2ccccn2)CC1; tested on = MAPK14; test = primary fragment screen; conditions = 0.25 mM, together with: ATP 10 µM; quantity = inhibition; value = 71.9%
SMILES = COc1c2c(cc3oc(=O)cc(C)c13)C(=O)c1cc(C)cc(O)c1C2=O; tested on = mushroom tyrosinase; test = enzyme activity; conditions = 100 µg/mL, together with: L-DOPA; quantity = inhibition; value = 44.58 ± 0.36%
SMILES = O=C1c2ccccc2C(=O)c2c1ccc1c2C(C(=O)Nc2ccc(Cl)cc2)C(=O)C1c1ccccc1 (stereo not drawn); tested on = mushroom tyrosinase; test = enzyme activity, inhibitor, spectrophotometry; conditions = 100 µg/mL, together with: L-DOPA substrate; quantity = inhibition; value = 45.6 ± 0.26%
SMILES = Nc1nc(Nc2ccccc2)nc2ccccc12; tested on = MAPK14; test = primary fragment screen; conditions = 0.25 mM, together with: ATP 10 µM; quantity = inhibition; value = 81.3%
SMILES = C=CC(=O)N1C[C@H](C)N(c2nc(OC[C@@]34CCCN3C[C@H](F)C4)nc3c(F)c(-c4ccc(F)c5sc(N)c(C#N)c45)c(C(F)(F)F)cc23)C[C@H]1C; tested on = CDK19 (Homo sapiens, UniProt Q9BWU1); test = binding, KINOMEscan; conditions = 1 µM; quantity = inhibition; value = 87%

Excerpt of the above:
SMILES = Cc1cc(/C=C/c2ccc(O)c(O)c2)[nH]n1; tested on = TXNRD1 (Homo sapiens, UniProt Q16881); test = enzyme activity; system = MCF7; conditions = 25 µM, 48 h; quantity = inhibition; value = 27%
SMILES = Cc1cc(O)cc2c1C(=O)c1c(cc3oc(=O)cc(-c4ccccc4)c3c1O)C2=O; tested on = mushroom tyrosinase; test = enzyme activity; conditions = 100 µg/mL, together with: L-DOPA; quantity = inhibition; value = 48.19 ± 0.36%
